Measurements of several laboratories.
Parts stem from different laboratories: compare values within a part only. Values joined by “and” are separate records of one study, mostly repeats; a detail may differ.
Sequence of UniProt Q9Y2U5 (whole entry, looked up): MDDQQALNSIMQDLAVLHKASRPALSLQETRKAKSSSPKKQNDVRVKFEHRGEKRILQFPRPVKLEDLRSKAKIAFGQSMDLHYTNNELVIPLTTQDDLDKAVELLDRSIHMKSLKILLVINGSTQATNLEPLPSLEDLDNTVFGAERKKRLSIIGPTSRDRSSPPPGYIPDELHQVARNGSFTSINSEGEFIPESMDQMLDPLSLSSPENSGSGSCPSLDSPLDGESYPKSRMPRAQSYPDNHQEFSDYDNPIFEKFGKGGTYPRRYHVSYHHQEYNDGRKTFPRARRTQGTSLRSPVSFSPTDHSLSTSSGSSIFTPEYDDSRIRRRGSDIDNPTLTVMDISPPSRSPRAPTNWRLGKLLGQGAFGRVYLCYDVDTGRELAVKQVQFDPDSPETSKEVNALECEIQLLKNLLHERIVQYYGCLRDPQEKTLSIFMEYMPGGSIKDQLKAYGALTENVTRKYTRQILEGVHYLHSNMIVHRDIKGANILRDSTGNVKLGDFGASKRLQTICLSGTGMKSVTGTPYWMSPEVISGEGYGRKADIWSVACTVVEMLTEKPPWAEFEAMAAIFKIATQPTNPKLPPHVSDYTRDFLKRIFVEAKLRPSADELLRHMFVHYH
Sequence of UniProt Q13043 (whole entry, looked up): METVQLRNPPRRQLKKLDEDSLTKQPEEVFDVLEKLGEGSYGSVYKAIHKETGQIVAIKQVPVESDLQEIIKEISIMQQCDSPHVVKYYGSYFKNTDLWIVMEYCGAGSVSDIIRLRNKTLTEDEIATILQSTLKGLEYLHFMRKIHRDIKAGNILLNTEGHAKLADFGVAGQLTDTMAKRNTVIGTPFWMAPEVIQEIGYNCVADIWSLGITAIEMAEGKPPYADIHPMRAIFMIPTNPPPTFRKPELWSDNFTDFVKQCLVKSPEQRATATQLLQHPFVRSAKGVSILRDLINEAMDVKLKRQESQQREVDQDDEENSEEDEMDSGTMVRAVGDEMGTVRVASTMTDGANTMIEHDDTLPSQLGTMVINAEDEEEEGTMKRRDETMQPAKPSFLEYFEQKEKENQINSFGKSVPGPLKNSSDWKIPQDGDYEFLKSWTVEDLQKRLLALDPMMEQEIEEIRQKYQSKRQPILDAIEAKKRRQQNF
Sequence of UniProt O00444 (whole entry, looked up): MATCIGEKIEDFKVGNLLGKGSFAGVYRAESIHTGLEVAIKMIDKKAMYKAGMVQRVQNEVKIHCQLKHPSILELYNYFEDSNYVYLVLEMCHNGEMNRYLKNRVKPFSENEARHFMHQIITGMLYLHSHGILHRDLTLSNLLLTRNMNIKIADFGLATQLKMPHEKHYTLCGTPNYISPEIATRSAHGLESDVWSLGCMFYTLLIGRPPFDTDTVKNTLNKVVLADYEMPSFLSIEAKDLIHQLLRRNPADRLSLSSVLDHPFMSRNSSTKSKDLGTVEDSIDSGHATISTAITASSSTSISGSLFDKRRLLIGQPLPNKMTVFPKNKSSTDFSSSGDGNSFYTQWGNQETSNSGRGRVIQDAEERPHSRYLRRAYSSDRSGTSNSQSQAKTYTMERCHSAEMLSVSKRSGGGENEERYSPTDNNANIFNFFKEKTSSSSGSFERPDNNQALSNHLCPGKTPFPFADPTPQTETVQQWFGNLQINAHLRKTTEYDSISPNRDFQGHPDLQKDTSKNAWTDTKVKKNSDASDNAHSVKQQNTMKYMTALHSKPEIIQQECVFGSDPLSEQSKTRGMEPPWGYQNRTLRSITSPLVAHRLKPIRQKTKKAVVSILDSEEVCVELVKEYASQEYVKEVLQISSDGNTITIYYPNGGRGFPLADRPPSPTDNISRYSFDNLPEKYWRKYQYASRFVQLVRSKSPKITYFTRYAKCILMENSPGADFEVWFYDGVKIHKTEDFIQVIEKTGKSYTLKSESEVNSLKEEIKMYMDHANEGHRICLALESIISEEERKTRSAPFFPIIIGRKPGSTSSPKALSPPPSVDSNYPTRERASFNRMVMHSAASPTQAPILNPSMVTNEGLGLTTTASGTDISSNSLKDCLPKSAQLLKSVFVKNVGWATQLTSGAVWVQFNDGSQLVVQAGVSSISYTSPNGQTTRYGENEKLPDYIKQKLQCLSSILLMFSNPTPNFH
Sequence of UniProt Q13882 (whole entry, looked up): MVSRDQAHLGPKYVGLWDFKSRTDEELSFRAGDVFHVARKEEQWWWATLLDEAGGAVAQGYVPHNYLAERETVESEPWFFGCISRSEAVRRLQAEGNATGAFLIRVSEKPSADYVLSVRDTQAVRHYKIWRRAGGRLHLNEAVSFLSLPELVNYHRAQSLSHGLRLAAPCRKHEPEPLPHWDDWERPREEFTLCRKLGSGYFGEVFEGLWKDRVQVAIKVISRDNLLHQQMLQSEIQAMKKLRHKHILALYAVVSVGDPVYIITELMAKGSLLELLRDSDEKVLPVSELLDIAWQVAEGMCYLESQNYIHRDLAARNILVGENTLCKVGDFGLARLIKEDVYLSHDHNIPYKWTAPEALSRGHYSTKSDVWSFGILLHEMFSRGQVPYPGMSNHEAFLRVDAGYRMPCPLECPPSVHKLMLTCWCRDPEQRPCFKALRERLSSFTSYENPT

Block 1 — observed: cell-free assay; method: competition with immobilised ligand; concentration: 1 µM
SMILES: COc1ccc2c(c1)O[C@H](c1ccc(OC)c(OC)c1)C[C@@H]2NC(=O)C1(c2ccc3c(c2)OC(F)(F)O3)CC1
target	remaining binding [%]
Phosphatidylinositol 4,5-bisphosphate 3-kinase catalytic subunit alpha isoform (PIK3CA, Homo sapiens, UniProt P42336, Q546K)	100
Epidermal growth factor receptor (EGFR, Homo sapiens, UniProt P00533, T790M)	87
Non-receptor tyrosine-protein kinase TYK2, JH1 (TYK2, Homo sapiens, UniProt P29597)	85
Serine/threonine-protein kinase PLK4 (PLK4, Homo sapiens, UniProt O00444)	89
Inhibitor of nuclear factor kappa-B kinase subunit alpha (CHUK, Homo sapiens, UniProt O15111)	89
Tyrosine-protein kinase ABL1, phosphorylated (ABL1, Homo sapiens, UniProt P00519, H396P)	98
Dual specificity mitogen-activated protein kinase kinase 5 (MAP2K5, Homo sapiens, UniProt Q13163)	76
Mitogen-activated protein kinase kinase kinase 2 (MAP3K2, Homo sapiens, UniProt Q9Y2U5)	91
Cyclin-dependent kinase-like 2 (CDKL2, Homo sapiens, UniProt Q92772)	100
Cyclin-dependent kinase 18 (CDK18, Homo sapiens, UniProt Q07002)	100
Protein-tyrosine kinase 6 (PTK6, Homo sapiens, UniProt Q13882)	100
Serine/threonine-protein kinase Chk2 (CHEK2, Homo sapiens, UniProt O96017)	100
Epidermal growth factor receptor (EGFR, Homo sapiens, UniProt P00533, A750P/del747-749)	98
Serine/threonine-protein kinase TAO3 (TAOK3, Homo sapiens, UniProt Q9H2K8)	100
Serine/threonine-protein kinase N2 (PKN2, Homo sapiens, UniProt Q16513)	100
Fibroblast growth factor receptor 1 (FGFR1, Homo sapiens, UniProt P11362)	87

Block 2 — observed: enzyme activity; mode: inhibitor; concentration: 77 µM; reference: untreated
Target: DNA polymerase theta, ATPase domain (POLQ, Homo sapiens, UniProt O75417)
Sequence of UniProt O75417 (whole entry, unmodified, looked up): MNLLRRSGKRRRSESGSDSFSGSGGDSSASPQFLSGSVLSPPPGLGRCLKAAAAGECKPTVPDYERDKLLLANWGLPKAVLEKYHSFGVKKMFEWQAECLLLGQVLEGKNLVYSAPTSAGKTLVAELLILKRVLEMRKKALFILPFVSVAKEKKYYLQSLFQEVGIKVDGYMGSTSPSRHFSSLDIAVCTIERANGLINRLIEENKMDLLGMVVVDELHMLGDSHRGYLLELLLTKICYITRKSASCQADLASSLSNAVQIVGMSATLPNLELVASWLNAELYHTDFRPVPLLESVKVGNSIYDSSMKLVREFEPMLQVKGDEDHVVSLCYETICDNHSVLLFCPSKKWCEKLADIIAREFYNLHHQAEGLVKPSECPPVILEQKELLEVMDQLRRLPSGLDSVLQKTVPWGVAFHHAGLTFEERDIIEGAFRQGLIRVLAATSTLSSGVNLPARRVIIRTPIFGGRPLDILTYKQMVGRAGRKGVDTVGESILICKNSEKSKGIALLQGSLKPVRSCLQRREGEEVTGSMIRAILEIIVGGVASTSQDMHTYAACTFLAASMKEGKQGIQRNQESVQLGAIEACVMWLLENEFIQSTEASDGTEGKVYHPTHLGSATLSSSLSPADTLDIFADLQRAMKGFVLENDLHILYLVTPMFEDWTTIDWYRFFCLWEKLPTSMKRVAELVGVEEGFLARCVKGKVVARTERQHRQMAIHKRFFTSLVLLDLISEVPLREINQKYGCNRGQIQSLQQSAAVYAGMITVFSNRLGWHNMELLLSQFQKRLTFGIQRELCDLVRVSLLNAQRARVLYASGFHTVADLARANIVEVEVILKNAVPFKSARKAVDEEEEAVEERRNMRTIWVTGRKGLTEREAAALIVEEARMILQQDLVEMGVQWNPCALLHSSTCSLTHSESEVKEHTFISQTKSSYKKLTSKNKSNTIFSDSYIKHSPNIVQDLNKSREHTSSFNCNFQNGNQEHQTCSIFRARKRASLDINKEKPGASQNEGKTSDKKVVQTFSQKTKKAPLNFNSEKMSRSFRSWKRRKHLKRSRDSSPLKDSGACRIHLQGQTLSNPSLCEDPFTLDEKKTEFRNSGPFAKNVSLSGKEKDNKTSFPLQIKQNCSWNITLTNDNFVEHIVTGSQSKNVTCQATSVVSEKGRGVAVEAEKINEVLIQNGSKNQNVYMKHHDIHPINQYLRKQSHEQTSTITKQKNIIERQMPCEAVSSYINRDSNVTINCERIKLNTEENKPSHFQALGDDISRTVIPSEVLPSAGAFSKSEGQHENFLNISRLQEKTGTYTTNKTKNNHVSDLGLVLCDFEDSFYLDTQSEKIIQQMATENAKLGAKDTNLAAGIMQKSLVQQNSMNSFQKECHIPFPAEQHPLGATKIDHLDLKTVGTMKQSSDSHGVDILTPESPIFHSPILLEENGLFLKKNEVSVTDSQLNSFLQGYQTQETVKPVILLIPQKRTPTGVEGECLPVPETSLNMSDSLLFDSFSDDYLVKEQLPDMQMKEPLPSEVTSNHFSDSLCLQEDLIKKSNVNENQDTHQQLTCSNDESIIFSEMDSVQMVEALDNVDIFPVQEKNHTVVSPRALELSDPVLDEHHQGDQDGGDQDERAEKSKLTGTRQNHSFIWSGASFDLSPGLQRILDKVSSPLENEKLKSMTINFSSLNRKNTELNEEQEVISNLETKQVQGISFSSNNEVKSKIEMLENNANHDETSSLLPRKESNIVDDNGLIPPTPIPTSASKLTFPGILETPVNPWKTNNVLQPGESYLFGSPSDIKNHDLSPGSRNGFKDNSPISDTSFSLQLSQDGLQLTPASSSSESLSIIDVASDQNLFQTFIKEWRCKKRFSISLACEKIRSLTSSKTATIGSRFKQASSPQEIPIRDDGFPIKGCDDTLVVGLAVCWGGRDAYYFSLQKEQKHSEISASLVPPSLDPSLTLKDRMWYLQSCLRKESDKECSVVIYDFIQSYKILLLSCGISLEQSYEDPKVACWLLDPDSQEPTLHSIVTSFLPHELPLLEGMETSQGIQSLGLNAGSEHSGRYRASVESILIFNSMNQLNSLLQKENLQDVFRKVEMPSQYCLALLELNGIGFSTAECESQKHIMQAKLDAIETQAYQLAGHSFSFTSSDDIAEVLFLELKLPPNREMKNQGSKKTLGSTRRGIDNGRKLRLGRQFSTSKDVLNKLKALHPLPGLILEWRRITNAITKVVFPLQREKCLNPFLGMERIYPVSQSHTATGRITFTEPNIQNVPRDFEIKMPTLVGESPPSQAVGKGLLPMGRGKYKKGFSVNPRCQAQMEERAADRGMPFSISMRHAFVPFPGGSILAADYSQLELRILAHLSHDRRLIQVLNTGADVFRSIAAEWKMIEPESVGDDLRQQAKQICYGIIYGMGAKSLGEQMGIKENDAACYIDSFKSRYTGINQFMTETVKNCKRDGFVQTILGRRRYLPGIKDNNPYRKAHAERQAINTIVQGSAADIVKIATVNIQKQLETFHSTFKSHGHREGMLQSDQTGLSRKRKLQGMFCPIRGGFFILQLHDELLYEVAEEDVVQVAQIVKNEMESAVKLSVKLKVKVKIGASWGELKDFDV
Structure (SMILES)	remaining activity
N#CC(c1ccc(Cl)cc1)c1c(Cl)cc(-n2ncc(=O)[nH]c2=O)cc1Cl (centres unmarked)	80.6%
COc1ccc(Cl)cc1C(=O)NCCc1ccc(S(=O)(=O)NC(=O)NC2CCCCC2)cc1	109% and 99.1% and 92.9%
C[C@@H]1C[C@H]2[C@@H]3CCC4=CC(=O)C=C[C@]4(C)[C@@]3(Cl)[C@@H](O)C[C@]2(C)[C@@]1(OC(=O)c1ccco1)C(=O)CCl	98.3% and 109%
CC(C)NC[C@H](O)COc1ccc(CCOCC2CC2)cc1	95%
COc1cc([C@@H]2c3cc4c(cc3[C@H](O)[C@H]3COC(=O)[C@H]23)OCO4)cc(OC)c1OC	102% and 97.3%
CC(C)N(CCCNC(=O)Nc1ccc(C(C)(C)C)cc1)C[C@H]1O[C@@H](n2ccc3c(N)ncnc32)[C@H](O)[C@@H]1O	103%
OC[C@H]1O[C@@H](n2cnc3c(NC4CCCCC4)ncnc32)[C@H](O)[C@@H]1O	108%
Cc1cncc(CN2CCC(=C3c4ccc(Cl)cc4CCc4cccnc43)CC2)c1	98.2%
CC(=O)Nc1ccc(C(=O)Nc2ccccc2N)cc1	76.8%
CCn1cc(C(=O)O)c(=O)c2cc(F)c(N3CCNCC3)cc21	96.5%
c1ccc2nc(C3=NCCN3)ccc2c1	104%

Block 3 — method: competitive binding panel; concentration: 1 µM; reference: vehicle
SMILES: COc1ccc2[nH]c3c4[nH]c5ccc(OC)cc5c4c4c(c3c2c1)C(=O)NC4=O
target	item	remaining binding
Calcium/calmodulin-dependent protein kinase type 1G (CAMK1G, Homo sapiens, UniProt Q96NX5)		76%
Serine/threonine-protein kinase Nek1 (NEK1, Homo sapiens, UniProt Q96PY6)		100%
Atypical kinase COQ8A, mitochondrial (COQ8A, Homo sapiens, UniProt Q8NI60)	ADCK3	100%
Tyrosine-protein kinase ABL1 (ABL1, Homo sapiens, UniProt P00519, M351T)		68%
Tyrosine-protein kinase ABL1 (ABL1, Homo sapiens, UniProt P00519, F317I)		87%
Serine/threonine-protein kinase 4 (STK4, Homo sapiens, UniProt Q13043)	MST1	100%
Ephrin type-A receptor 7 (EPHA7, Homo sapiens, UniProt Q15375)		86%
Interleukin-1 receptor-associated kinase 3 (IRAK3, Homo sapiens, UniProt Q9Y616)		66%

Block 4 — matrix: EL4 tumour; dose: dose not given; reference: vehicle
SMILES: CC(=O)N[C@@H](Cc1c[nH]c2ccccc12)C(=O)N[C@@H](CCC(=O)C=[N+]=[N-])C(=O)OC(C)C
method	item	host	log2 fold change
metabolomics	2,3-dihydroxyisovalerate	mouse	-0.594
	UMP	mouse, EL4 tumour-bearing	-0.359
	pantoate	mouse, EL4 tumour-bearing	-0.842
	5-methylcytidine	mouse, EL4 tumour-bearing	-1.1
	prolylglycine	mouse, EL4 tumour-bearing	0.658
	ribose	mouse, EL4 tumour-bearing	1.69
	3-phosphoglycerate	mouse, EL4 tumour-bearing	0.848
	S-methylglutathione	mouse, EL4 tumour-bearing	-0.839
	asparagine	mouse, EL4 tumour-bearing	0.323

A few entries again (block 2):
Structure (SMILES)	remaining activity
C[C@@H]1C[C@H]2[C@@H]3CCC4=CC(=O)C=C[C@]4(C)[C@@]3(Cl)[C@@H](O)C[C@]2(C)[C@@]1(OC(=O)c1ccco1)C(=O)CCl	98.3% and 109%
COc1ccc(Cl)cc1C(=O)NCCc1ccc(S(=O)(=O)NC(=O)NC2CCCCC2)cc1	109% and 99.1% and 92.9%
CC(=O)Nc1ccc(C(=O)Nc2ccccc2N)cc1	76.8%
COc1cc([C@@H]2c3cc4c(cc3[C@H](O)[C@H]3COC(=O)[C@H]23)OCO4)cc(OC)c1OC	102% and 97.3%
OC[C@H]1O[C@@H](n2cnc3c(NC4CCCCC4)ncnc32)[C@H](O)[C@@H]1O	108%
CC(C)NC[C@H](O)COc1ccc(CCOCC2CC2)cc1	95%
CCn1cc(C(=O)O)c(=O)c2cc(F)c(N3CCNCC3)cc21	96.5%
